Measured values collected from several papers.
Protocols differ between the studies behind these lines. ± gives the spread as reported.
Fibroin-modulator-binding protein-1: Fibroin-modulator-binding protein-1 99-193 (Bombyx mori, UniProt Q5FBS0)

Molecule	tested on	assay	system	conditions	scale	endpoint	value
WLGQWIARL	Jurkat T cells expressing 1G4 TCR	NFAT-eGFP reporter, fluorescence microscopy	peptide	concentration not given, HLA-A*02:01 NY-ESO system		reporter activation	0.0128%
MTVCNASQRQAHAQATAVSL	MiaPaCa	phage binding	peptide		reference: targeting over control phage	selectivity ratio	0.89 ± 0.29
ALLQWITQV	Jurkat T cells expressing 1G4 TCR	NFAT-eGFP reporter, flow cytometry	peptide	concentration not given, HLA-A*02:01 NY-ESO system		reporter activation	78.1%
ITDFGRAKL	HLA class I histocompatibility antigen, A alpha chain, allele A*01:01 (Homo sapiens, UniProt P04439)	conformational ELISA	peptide	concentration not given	reference: positive control peptide, direction not given	binding score	2%
ACAAACAAACAA (dsDNA)	Fibroin-modulator-binding protein-1	ITC	double-stranded DNA, one strand shown			Kd	2670 ± 254 nM
SVWLRKETRV	human MAGI1-2/6 PDZ construct (MBP fusion)	automated holdup	peptide, crude extract	concentration not given, corrected by standard peak, unit not given	reference: biotin control resin, higher = stronger binding	binding intensity	0.868
GLLEWVSQV	Jurkat T cells expressing 1G4 TCR	NFAT-eGFP reporter, fluorescence microscopy	peptide	concentration not given, HLA-A*02:01 NY-ESO system		reporter activation	0.0119%
GSGAGSETKM	human MAGI1-3/6 PDZ construct (MBP fusion)	automated holdup	peptide, crude extract	concentration not given, corrected by standard peak, unit not given	reference: biotin control resin, higher = stronger binding	binding intensity	-0.0382
FNA / CGLSGLGVA-NH2 ([18F]FNA-labelled, C-amide)		gamma counting	peptide, healthy mice, brown adipose tissue	60 min		tissue uptake	0.21 %ID/g
ACATACATACAT (dsDNA)	Fibroin-modulator-binding protein-1	ITC	double-stranded DNA, one strand shown			Kd	615 ± 34 nM
PMESGICTIV	human SCRIB PDZ3-4 tandem (MBP fusion)	automated holdup	peptide, crude extract	concentration not given, corrected by standard peak, unit not given	reference: biotin control resin, higher = stronger binding	binding intensity	0.113
GLGTWISQV	Jurkat T cells expressing 1G4 TCR	NFAT-eGFP reporter, flow cytometry	peptide	concentration not given, HLA-A*02:01 NY-ESO system		reporter activation	12.2%
colistin	Enterobacter cloacae	broth microdilution	clinical isolate RKI-No_210/15			MIC	1 µg/mL
LIMQLMPF	HLA class I histocompatibility antigen, A alpha chain, allele A*24:02 (Homo sapiens, UniProt P04439)	conformational ELISA	peptide	concentration not given	reference: positive control peptide, direction not given	binding score	17.1%
ALFQWISGA	Jurkat T cells expressing 1G4 TCR	NFAT-eGFP reporter, flow cytometry	peptide	concentration not given, HLA-A*02:01 NY-ESO system		reporter activation	0.095%
Peginesatide	UT7/EPO	RT-qPCR, refers to: BMP2		concentration not given, 90 min, normalized to HPRT1	reference: vehicle	mRNA level	4.9 fold
GGLQWIPRA	Jurkat T cells expressing 1G4 TCR	NFAT-eGFP reporter, flow cytometry	peptide	concentration not given, HLA-A*02:01 NY-ESO system		reporter activation	0.23%
SEC11A		co-immunoprecipitation	human RBC cytosol	DSSO crosslinker, unit not given, added: Band 3 peptide 1-56 bait	reference: negative control	co-IP enrichment	1.19
SEKHFRETEV	human MAGI1-3/6 PDZ construct (MBP fusion)	surface plasmon resonance	peptide	concentration not given	higher = stronger binding	normalised SPR binding response	7.8 normalised RU
USP14		co-immunoprecipitation	human plasma	unit not given, added: Band 3 peptide 1-56 bait	reference: negative control	co-IP enrichment	0
GSGAGKETSF	human MAGI1-2/6 PDZ construct (MBP fusion)	automated holdup	peptide, crude extract	concentration not given, uncorrected, unit not given	reference: biotin control resin, higher = stronger binding	binding intensity	0.0474
epoetin alfa	UT7/EPO	microarray, refers to: SOCS3 (probe 206359_at)		5 U/mL, 90 min, added: SCF 10 nM	reference: vehicle	mRNA level	41.4 fold
GSGAGHETIV	human MAGI1-3/6 PDZ construct (MBP fusion)	automated holdup	peptide, crude extract	concentration not given, uncorrected, unit not given	reference: biotin control resin, higher = stronger binding	binding intensity	0.296
hemoglobin alpha		co-immunoprecipitation	human RBC membrane	DSSO crosslinker, unit not given, added: Band 3 peptide 1-56 bait	reference: negative control	co-IP enrichment	38
